# Results from different studies.
# Each numbered part is a random draw from the data of one study; scales do not carry over between parts. Several values in a cell are separate wells, animals, samples, runs or records.
# Chain of UniProt P11229 (whole entry, looked up): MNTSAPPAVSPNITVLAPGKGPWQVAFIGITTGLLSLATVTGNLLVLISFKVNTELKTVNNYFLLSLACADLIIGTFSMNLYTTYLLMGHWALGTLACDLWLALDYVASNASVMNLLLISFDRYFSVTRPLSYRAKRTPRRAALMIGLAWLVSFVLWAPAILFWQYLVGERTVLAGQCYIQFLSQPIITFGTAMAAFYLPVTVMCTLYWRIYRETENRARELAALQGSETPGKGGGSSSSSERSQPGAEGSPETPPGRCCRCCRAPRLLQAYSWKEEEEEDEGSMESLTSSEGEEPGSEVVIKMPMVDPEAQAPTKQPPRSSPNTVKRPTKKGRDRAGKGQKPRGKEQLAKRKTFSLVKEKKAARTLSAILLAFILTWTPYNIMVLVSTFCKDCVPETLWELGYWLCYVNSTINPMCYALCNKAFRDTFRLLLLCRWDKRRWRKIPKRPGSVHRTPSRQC

# Set 1
# Structure (SMILES): Cc1cc2c(C(N)=O)c(N)n(-c3c(C)ccc(O)c3C)c2nc1C
# SRC: Proto-oncogene tyrosine-protein kinase Src (SRC, Homo sapiens, UniProt P12931)
tested on,test,conditions,inhibition [%]
NCI-H1568,cell growth,370.37 nM,17.4
SRC,"kinase activity, inhibitor, HTRF","0.0005081 µM, 0.5081 nM",12.2
SRC,"enzyme activity, inhibitor, TR-FRET",41.15 nM,81.7
NCI-H1648,cell proliferation,30000 nM,96.8
NCI-H1568,cell growth,41.15 nM,8.46

# Set 2
# Compound: COc1cc(C(=O)N2CCC(N3CCN(C)CC3)CC2)ccc1Nc1ncc2c(n1)N(C)c1ccccc1C(=O)N2C
tested on,test,system,conditions,inhibition
mouse CaMK2γ,"probe labelling, KiNativ ATP probe",mouse brain lysate,"0.1 µM, LYS1 site TSTQEYAAkIINTK",-26.8%
RSKL1 domain 1 (mouse),"probe labelling, inhibitor, KiNativ ActivX ADP probe",mouse brain lysate,1 µM,-11.3%
WNK1/WNK2/WNK4 (mouse),"probe labelling, inhibitor, KiNativ ActivX ATP probe",mouse brain lysate,"1 µM, activation loop peptide IGDLGLATLkR",-7.8%
TNIK (mouse),"probe labelling, inhibitor, KiNativ ActivX ATP probe",mouse brain lysate,"0.1 µM, Lys1 site peptide",3.7% and 5%
SLK,,,1 µM,-16.5%
eEF2K (mouse),"probe labelling, inhibitor, KiNativ ActivX ATP probe",mouse brain lysate,"0.1 µM, ATP loop peptide YIkYNSNSGFVR",-5.7%
mouse PKCι and PKCζ,"probe labelling, KiNativ ADP probe",mouse brain lysate,"1 µM, LYS1 site IYAMkVVK",-11.4%
human PBMC,"probe labeling, inhibitor, KiNativ profiling",cell lysate,"concentration not given, LYS1 site, together with: ADP acyl-phosphate probe 0.1 µM",-1.6%

# Set 3 — effect on: RNA clamping; method: fluorescence polarization; concentration: concentration not given; together with: FAM-labelled poly r(AG)8 RNA
# Target: Eukaryotic initiation factor 4A-III (Homo sapiens, UniProt P38919)
# Chain of UniProt P38919 (whole entry, looked up): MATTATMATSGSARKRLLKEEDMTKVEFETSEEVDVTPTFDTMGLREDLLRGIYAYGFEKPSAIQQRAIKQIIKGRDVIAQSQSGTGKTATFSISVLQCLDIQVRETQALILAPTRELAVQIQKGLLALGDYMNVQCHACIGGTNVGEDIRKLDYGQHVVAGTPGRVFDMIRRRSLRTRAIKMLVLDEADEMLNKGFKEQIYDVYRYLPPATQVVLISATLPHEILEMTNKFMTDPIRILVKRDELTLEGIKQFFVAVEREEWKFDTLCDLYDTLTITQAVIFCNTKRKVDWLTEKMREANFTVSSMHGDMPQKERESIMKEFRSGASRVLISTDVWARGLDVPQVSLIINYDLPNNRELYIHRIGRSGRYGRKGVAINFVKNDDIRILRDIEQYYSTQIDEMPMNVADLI
Compound,fluorescence polarization change [mP]
COc1cc(F)cc2c1[C@]1(O)[C@H](O)[C@@H](C#N)[C@H](c3ccccc3)[C@]1(c1ccc(Br)cc1)O2,3.5
COC(=O)[C@H]1C(=O)[C@@]2(NN(C)C)c3c(OC)cc(OC)cc3O[C@@]2(c2ccc(OC)cc2)[C@@H]1c1ccccc1,6
COc1ccc([C@@]23Oc4cc(OC)cc(OC)c4[C@]2(O)C2=C(C(=O)N4CCC[C@@]4(C)N2)[C@H]3c2ccccc2)cc1,5
COc1ccc([C@@]23Oc4cc(OC)cc(OC)c4[C@]2(O)c2[nH]nc(O)c2[C@H]3c2ccccc2)cc1,24.7
COC(=O)[C@H]1C(=O)[C@@]2(NCCCC(OC)OC)c3c(OC)cc(OC)cc3O[C@@]2(c2ccc(OC)cc2)[C@@H]1c1ccccc1,11.3
COc1ccc([C@]23Oc4cc(OC)cc(OC)c4[C@](O)([C@H](C(=O)NCCCC(OC)OC)[C@H]2c2ccccc2)[C@H]3O)cc1,-0.9
C=CCOc1nc(-c2ccccc2)nc2c1[C@@H](c1ccccc1)[C@]1(c3ccc(OC)cc3)Oc3cc(OC)cc(OC)c3[C@]21O,5.2
CCOC(=O)COc1nc(-c2ccccc2)nc2c1[C@@H](c1ccccc1)[C@]1(c3ccc(OC)cc3)Oc3cc(OC)cc(OC)c3[C@]21OCC(=O)OCC,5.6

# Further values, each from its own experiment
Compound,target,test,conditions,measurement,result
CC(=O)Nc1c(F)cc(C(=O)N[C@H]2CC[C@H](O)CC2)cc1O[C@@H](C)c1ccccc1,"Muscarinic acetylcholine receptor M1 (CHRM1, Homo sapiens, UniProt P11229)","binding, radioligand binding",10 µM,inhibition,-4.64%
